# Published values collected from several papers.
# Each line is one published result; not all experiments were run side by side. Several values in a cell are separate wells, animals, samples, runs or records. ± gives the spread as reported.
# Sequence of UniProt O43614 (whole entry, unmodified, looked up): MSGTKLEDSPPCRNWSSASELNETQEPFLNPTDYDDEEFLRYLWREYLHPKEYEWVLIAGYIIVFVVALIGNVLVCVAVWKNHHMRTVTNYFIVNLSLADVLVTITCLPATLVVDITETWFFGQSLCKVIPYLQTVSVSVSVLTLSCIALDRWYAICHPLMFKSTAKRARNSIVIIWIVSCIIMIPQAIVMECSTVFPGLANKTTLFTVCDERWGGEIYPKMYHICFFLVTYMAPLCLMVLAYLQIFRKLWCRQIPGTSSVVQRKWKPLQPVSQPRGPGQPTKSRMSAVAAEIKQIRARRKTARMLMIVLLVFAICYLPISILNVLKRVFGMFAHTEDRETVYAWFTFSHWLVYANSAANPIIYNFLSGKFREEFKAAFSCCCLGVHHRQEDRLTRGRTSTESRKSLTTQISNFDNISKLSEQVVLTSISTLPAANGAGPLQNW
# Sequence of UniProt P06241 (whole entry, looked up): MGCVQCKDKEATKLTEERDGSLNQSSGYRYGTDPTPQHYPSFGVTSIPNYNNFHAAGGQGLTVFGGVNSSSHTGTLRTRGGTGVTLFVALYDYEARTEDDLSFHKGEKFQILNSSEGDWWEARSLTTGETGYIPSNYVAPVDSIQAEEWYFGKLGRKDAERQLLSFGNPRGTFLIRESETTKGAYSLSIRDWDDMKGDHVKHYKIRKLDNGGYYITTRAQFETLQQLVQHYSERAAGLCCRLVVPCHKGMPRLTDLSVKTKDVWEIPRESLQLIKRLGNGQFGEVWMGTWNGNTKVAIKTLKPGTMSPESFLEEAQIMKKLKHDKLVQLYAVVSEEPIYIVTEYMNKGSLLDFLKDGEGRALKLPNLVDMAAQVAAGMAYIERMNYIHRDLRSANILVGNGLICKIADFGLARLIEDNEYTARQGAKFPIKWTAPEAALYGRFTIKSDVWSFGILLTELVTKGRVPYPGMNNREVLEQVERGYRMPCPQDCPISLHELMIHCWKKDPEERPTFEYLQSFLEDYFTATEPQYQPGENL
# Sequence of UniProt P34897 (whole entry, unmodified, looked up): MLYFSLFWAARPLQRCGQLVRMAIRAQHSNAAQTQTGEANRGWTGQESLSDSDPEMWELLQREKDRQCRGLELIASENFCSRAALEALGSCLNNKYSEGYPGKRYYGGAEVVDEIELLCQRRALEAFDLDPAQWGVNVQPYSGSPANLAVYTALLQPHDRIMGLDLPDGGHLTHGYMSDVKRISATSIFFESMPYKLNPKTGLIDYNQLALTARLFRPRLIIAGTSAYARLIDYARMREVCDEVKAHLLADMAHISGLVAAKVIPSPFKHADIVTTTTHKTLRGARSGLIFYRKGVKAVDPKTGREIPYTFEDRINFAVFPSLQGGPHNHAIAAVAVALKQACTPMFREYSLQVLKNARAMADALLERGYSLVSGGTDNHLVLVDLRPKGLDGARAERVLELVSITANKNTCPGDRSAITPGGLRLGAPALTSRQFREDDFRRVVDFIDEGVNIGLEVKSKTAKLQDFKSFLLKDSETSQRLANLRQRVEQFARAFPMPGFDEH
# Sequence of UniProt P14780 (whole entry, looked up): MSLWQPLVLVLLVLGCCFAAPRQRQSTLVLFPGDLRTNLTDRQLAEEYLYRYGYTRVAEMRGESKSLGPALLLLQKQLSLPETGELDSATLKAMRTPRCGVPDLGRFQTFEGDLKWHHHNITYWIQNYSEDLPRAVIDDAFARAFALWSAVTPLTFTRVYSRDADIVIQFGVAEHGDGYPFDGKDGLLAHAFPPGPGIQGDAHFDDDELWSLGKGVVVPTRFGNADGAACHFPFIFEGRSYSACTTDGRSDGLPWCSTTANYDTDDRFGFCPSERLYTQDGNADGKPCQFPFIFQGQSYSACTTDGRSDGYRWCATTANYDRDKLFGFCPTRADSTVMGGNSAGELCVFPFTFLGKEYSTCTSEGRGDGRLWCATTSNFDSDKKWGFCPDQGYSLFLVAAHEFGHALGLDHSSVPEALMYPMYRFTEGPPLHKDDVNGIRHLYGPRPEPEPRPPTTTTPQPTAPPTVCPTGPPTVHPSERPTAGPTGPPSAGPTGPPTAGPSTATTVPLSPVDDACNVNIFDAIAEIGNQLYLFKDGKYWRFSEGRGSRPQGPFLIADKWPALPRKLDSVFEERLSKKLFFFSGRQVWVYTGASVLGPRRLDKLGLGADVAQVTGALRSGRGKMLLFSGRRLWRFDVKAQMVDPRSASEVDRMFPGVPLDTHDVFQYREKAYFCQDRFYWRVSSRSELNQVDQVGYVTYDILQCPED
# Sequence of UniProt P22303 (whole entry, looked up): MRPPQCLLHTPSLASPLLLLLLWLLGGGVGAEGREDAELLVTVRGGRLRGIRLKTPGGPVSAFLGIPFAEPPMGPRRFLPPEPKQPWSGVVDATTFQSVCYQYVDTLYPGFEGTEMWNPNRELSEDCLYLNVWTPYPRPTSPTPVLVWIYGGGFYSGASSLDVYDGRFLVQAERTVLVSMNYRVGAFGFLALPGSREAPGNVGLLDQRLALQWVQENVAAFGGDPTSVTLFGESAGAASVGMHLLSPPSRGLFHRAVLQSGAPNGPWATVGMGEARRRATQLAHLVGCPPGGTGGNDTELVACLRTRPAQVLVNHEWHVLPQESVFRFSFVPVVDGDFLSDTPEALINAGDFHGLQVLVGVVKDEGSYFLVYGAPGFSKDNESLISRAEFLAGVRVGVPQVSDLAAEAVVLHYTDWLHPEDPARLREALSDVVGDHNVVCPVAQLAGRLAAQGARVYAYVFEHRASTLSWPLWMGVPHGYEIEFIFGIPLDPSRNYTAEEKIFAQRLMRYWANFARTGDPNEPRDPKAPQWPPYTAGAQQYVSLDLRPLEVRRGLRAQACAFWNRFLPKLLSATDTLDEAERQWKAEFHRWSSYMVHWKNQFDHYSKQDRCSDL
# Sequence of UniProt Q01959 (whole entry, looked up): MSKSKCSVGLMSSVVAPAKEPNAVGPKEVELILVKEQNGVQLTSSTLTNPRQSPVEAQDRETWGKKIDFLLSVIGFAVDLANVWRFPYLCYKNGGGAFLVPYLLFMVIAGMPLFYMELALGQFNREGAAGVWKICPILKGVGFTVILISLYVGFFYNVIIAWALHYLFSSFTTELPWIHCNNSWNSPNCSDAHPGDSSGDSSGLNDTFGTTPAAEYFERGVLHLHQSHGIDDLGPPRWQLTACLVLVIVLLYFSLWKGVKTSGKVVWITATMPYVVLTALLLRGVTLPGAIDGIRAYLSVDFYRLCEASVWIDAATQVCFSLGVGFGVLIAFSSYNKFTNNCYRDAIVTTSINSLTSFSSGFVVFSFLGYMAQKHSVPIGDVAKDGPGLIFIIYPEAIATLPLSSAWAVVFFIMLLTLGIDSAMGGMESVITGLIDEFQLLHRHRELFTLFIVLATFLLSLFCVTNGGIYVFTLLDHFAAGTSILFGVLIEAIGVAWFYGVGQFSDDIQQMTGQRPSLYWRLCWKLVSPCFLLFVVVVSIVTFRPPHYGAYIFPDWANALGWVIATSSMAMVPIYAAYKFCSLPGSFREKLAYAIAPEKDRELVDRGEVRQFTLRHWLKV
# Sequence of UniProt P41586 (whole entry, unmodified, looked up): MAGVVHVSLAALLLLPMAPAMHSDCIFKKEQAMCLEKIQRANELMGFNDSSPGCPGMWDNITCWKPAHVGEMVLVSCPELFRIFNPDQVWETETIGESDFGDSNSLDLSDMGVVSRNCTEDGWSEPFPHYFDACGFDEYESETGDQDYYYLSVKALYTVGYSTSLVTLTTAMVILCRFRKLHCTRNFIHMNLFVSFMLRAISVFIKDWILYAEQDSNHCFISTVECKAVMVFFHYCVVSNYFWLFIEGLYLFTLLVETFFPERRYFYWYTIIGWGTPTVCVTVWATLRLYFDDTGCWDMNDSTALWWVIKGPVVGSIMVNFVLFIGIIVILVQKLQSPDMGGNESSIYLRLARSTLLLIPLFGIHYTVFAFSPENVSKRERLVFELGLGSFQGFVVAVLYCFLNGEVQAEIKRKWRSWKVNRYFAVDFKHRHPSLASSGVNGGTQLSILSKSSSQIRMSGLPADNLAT
Substance,tested on,test,test system,setting,how to read,quantity,value
SFLLRNPNDKYEPF,BPAEC,measured: cytosolic Ca2+,peptide,100 µM,,time to new steady-state,~3 min
ibogaine,"Sodium-dependent dopamine transporter (SLC6A3, Homo sapiens, UniProt Q01959)","transporter current, inhibitor, electrophysiology",human DAT-expressing cells,"current recovery, added: dopamine 30 µM",,koff,0.897 s⁻¹
tetrahydrofolate,"Serine hydroxymethyltransferase, mitochondrial (SHMT2, Homo sapiens, UniProt P34897, Y105A)","substrate, MTHFD2-coupled NADH fluorescence",,"Y105A mutant, added: serine 200 mM",,Km,484 µM
"Ac-APPIPPPRRKR-NH2 (N-acetyl, C-amide)","Tyrosine-protein kinase Fyn, SH3 domain (FYN, Homo sapiens, UniProt P06241)","binding, C-D FTIR probe",peptide,"4 mM, pH 7.0, band C, FYN complex, peptide P-1",,asymmetric stretch frequency,2252.6 ± 1.1 cm⁻¹
Tunicamycin,HEK293 expressing GLuc,luminescence,,unit not given,reference: mock,Gaussia luciferase secretion,0.498
heparin sodium,,,healthy Chinese adult volunteers,"continuous intravenous infusion, 8 IU/kg/h, 5 days",,abnormal liver function leading to discontinuation,0%
PAALVAC (6-FAM-labelled),"Matrix metalloproteinase-9 (MMP9, Homo sapiens, UniProt P14780)","substrate, fluorescence",peptide,,,substrate release rate constant,0.00379 h⁻¹
HVLVMSATRR,,,"peptide, C57BL/6J mice, male, blood","subcutaneous osmotic pump, 3 mg/kg/day peptide basis, 8 weeks",,MCH,14 pg and 13.9 pg and 14.2 pg and 14.6 pg
dynorphin,"Orexin receptor type 2 (HCRTR2, Homo sapiens, UniProt O43614, del254-292/I293E/K294R/L160H/M161K/Q254E)","sensor fluorescence, fluorescence imaging",HEK293T,"concentration not given, unit not given",reference: baseline,ΔF/F0,-0.262 and 0.0768 and -0.678 and -0.763 and 0.0266 and -0.296 and -3.35 and -0.0293
"Ac-TFELQGGGPRGVNL-NH2 (N-acetyl, C-amide)","Prothrombin (F2, Bos taurus, UniProt P00735)","substrate, HPLC",,"pH 7.4, 25 °C, added: thrombin 2.2 nM",,kcat/Km,88000 ± 20000 M⁻¹ s⁻¹
evodiamine,"Acetylcholinesterase (ACHE, Homo sapiens, UniProt P22303)","enzyme activity, inhibitor",,,,IC50,inactive
ETTLKSF,,fluorescence microscopy,"peptide, trypsin-treated human erythrocytes",concentration not given,,binding,binds
aspterric acid,,root length,Arabidopsis thaliana Col-0 seeds,"100 µg/mL, 7 days, dark",,inhibition,99.2%
(+)-cyclazocine,"Genome polyprotein, NS3 helicase domain (Hepatitis C virus genotype 1b, UniProt Q9WMX2)","NS3 helicase DNA binding, fluorescence, Cy5-dT15",,100 µM,,inhibition,0%
(−)-cocaine,"Sodium channel protein type 4 alpha, BTX-activated (Oryctolagus cuniculus, UniProt G1SLL9)",,rabbit,concentration not given,,on-rate reduction,~50%
maxadilan,"Pituitary adenylate cyclase-activating polypeptide type I receptor (ADCYAP1R1, Homo sapiens, UniProt P41586, del89-109)","cAMP production, agonist",COS-7,"37 °C, AUC over 20 min",,Emax,69 ± 2%
mitragynine,,substrate,human liver S9,"10 min, 2",,Km,1.06 µM
nonaarginine,PorA peptide pore,"peptide binding, planar bilayer single-channel recording",,"0.5 µM, pH 7.4, +40 mV, trans side, 150 mM KCl",,koff,5000 ± 500 s⁻¹
insulin human,,measured: TGM5 mRNA,"uninfected mouse, brain","i.p., dose not given",reference: PBS,fold change,1.17
hexaarginine,PorA peptide pore,"peptide binding, planar bilayer single-channel recording",,"0.5 µM, pH 7.4, +15 mV, trans side, 150 mM KCl",,koff,2300 ± 250 s⁻¹
Polymyxin B,,,"mouse, serum",20 mg/kg,,cystatin C level,39.8 ng/mL
